Results gathered from unrelated publications.
Protocols differ between the studies behind these lines. ± marks the error that the study gave.

C[C@H](c1ccccc1)n1cncc1C(=O)OCCC(=O)O
blood concentration decrease (item: metabolite; Sprague-Dawley rat; intravenous infusion, dose not given, 60 min after stopping infusion): 30%

COc1cc2c(Oc3ccc4[nH]c(C)cc4c3F)ccnc2cc1OCC1(N)CC1
grade 3 Diarrhoea (paediatric recurrent refractory sarcoma; 8 mg): 0%

CN1CCN(S(=O)(=O)c2cc([N+](=O)[O-])ccc2N(CCOS(C)(=O)=O)CCOS(C)(=O)=O)CC1
total protein (naive NOD/SCID mice, pooled blood; intraperitoneal, 12.5 mg/kg, week 4): 58 g/L

CC(=O)NCC(=O)NCC(=O)N[C@H](C(=O)N[C@@H](Cc1ccc(O)cc1)C(=O)N[C@@H](CO)C(=O)N[C@H]1CSSC[C@@H](C(=O)N[C@@H](CCCNC(=N)N)C(=O)N2CCC[C@H]2C(=O)N[C@@H](CCC(N)=O)C(=O)N[C@@H](CCCNC(=N)N)C(=O)NCC(=O)NCCC(=O)N[C@@H](CCCCNC(=O)CN(CC(=O)NCCCC[C@H](NC(=O)CCNC(=O)CNC(=O)[C@H](CCCNC(=N)N)NC(=O)[C@H](CCC(N)=O)NC(=O)[C@@H]2CCCN2C(=O)[C@H](CCCNC(=N)N)NC(=O)[C@@H]2CSSC[C@H](NC(=O)[C@H](CO)NC(=O)[C@H](Cc3ccc(O)cc3)NC(=O)[C@@H](NC(=O)CNC(=O)CNC(C)=O)[C@@H](C)O)C(=O)N[C@@H](Cc3c[nH]cn3)C(=O)N[C@@H](Cc3ccccc3)C(=O)NCC(=O)N[C@@H](C)C(=O)N[C@@H](CC(C)C)C(=O)N[C@@H]([C@@H](C)O)C(=O)N[C@@H](Cc3c[nH]c4ccccc34)C(=O)N[C@@H](C(C)C)C(=O)N2)C(N)=O)C(=O)CCN)C(N)=O)NC(=O)[C@H](C(C)C)NC(=O)[C@H](Cc2c[nH]c3ccccc23)NC(=O)[C@H]([C@@H](C)O)NC(=O)[C@H](CC(C)C)NC(=O)[C@H](C)NC(=O)CNC(=O)[C@H](Cc2ccccc2)NC(=O)[C@H](Cc2c[nH]cn2)NC1=O)[C@@H](C)O
serum concentration (MSD immunoassay; BALB/c mice, healthy female, serum; subcutaneous, 0.08 mg/kg, 144 h, LLOQ 2.0 ng/mL): not detected

CCCC1CCC(C2CCC(c3ccc(F)c(F)c3)CC2)CC1 (centres unmarked)
median fetal accumulation (rat, fetus; 10 ng/mL in perfusate, low dose, mixture of 21 LCMs): 0.133 ng/g

C[C@@H]1NC(=O)[C@H](CCCCNC(=O)CO/N=C/C(=O)NCCCC[C@@H]2NC(=O)[C@@H](Cc3ccccc3)NC(=O)[C@H](CC(=O)O)NC(=O)CNC(=O)[C@H](CCCNC(=N)N)NC2=O)NC(=O)CNC(=O)[C@@H]2CCCN2C(=O)[C@H](CCCCNC(=O)CO/N=C/C(=O)NCCCC[C@@H]2NC(=O)[C@@H](Cc3ccccc3)NC(=O)[C@H](CC(=O)O)NC(=O)CNC(=O)[C@H](CCCNC(=N)N)NC2=O)NC(=O)[C@H](CCCCNC(=O)[C@H](CCCCN)NC(=O)[C@H](Cc2ccccc2)NC(=O)CNC(=O)CN2CCCNCCNCCCNCC2)NC(=O)[C@H](CCCCNC(=O)CO/N=C/C(=O)NCCCC[C@@H]2NC(=O)[C@@H](Cc3ccccc3)NC(=O)[C@H](CC(=O)O)NC(=O)CNC(=O)[C@H](CCCNC(=N)N)NC2=O)NC(=O)CNC(=O)[C@@H]2CCCN2C(=O)[C@H](CCCCNC(=O)CO/N=C/C(=O)NCCCC[C@@H]2NC(=O)[C@@H](Cc3ccccc3)NC(=O)[C@H](CC(=O)O)NC(=O)CNC(=O)[C@H](CCCNC(=N)N)NC2=O)NC1=O [copper-64 labelled]
tissue uptake (normal mice, pancreas; intravenous, 0.74 MBq, 3 h post-injection): 0.61 ± 0.05 %ID/g

CN(C)C(=O)c1cc2cnc(Nc3ccc(N4CCNCC4)cn3)nc2n1C1CCCC1
patients with adverse event (item: Hepatobiliary toxicity, AESI; human, HR+/HER2− advanced breast cancer; oral, dose not given, grade 4, CTCAE v4.03): 0.9%

Clc1cc2c(cc1Cl)Oc1c(ccc(Cl)c1Cl)O2
dose fraction in skim milk (whole cow milk; 200 nM nominal): 5.2%

CC(C)c1nc(N(C)S(C)(=O)=O)nc(-c2ccc(F)cc2)c1/C=C/[C@@H](O)C[C@@H](O)CC(=O)O
incidence of metabolism disorders (healthy human subjects; oral, dose not given, study CL-0537 safety set): 0%

Nc1ncnc2c1ncn2[C@@H]1O[C@@H]2COP(=O)([S-])O[C@@H]3[C@H](O)[C@@H](COP([O-])(=S)O[C@H]2[C@H]1O)O[C@H]3n1cnc2c(N)ncnc21.[Na+].[Na+] (some centres unmarked)
AST (non-tumor-bearing mice, serum; intravenous, 1 mg/kg, toxicity study): 201 ± 31.7 U/L

CCC(C)(C)c1cc(-n2nc3ccccc3n2)c(O)c(C(C)(C)CC)c1
cumulative absorption (item: receptor fluid; reconstructed human epidermis EpiSkin; 36 h): 41.8 ± 2.82%

O=C(Nc1ccc2c(c1)B(O)OC2)c1ccc(OCc2ccc(Cl)cc2)cc1
membrane retention (PAMPA; 200 µM, 5 h, pH 7.4): 11.5%

C=CC(=O)N1CCC(c2ccc(C(N)=O)c(-c3ccc(Oc4ccccc4)cc3)n2)CC1
incidence (serious adverse event Death; patients with relapsed/refractory MCL; oral): 0.9%

CC(=O)c1c(C)c2cnc(Nc3ccc(C4CCN(CCS(C)(=O)=O)CC4)cn3)nc2n(C2CCCC2)c1=O
Cmax (human, dose-escalation trial, plasma; oral, 150 mg twice daily, day 21, multiple doses): 391 ng/mL

Some of these lines once more:
C=CC(=O)N1CCC(c2ccc(C(N)=O)c(-c3ccc(Oc4ccccc4)cc3)n2)CC1
incidence (serious adverse event Death; patients with relapsed/refractory MCL; oral): 0.9%
